Measured values gathered from unrelated publications.
Compare with care: the assays were run in different laboratories. Numbers after ± are the reported error.

SMILES	assay	system	conditions	Cmax
N#Cc1cc(NC(=O)[C@H]2c3ccccc3C(=O)N(CC(F)(F)F)[C@@H]2c2cccnc2)ccc1F		human, plasma	oral, 1200 mg, median	1650 ng/mL
COC(=O)N[C@@H](C)CNc1nccc(-c2cn(C(C)C)nc2-c2cc(Cl)cc(NS(C)(=O)=O)c2F)n1		human patients, plasma	oral, 450 mg twice daily, day 14, steady state, median, with: binimetinib 45 mg once daily	3330 ng/mL
CN(CC#N)C(=O)C[C@H](Nc1nc2ccccc2[nH]1)c1cccc(C(F)(F)F)c1		human	intravenous infusion, 4 mg/kg, 1 mg/mL formulation	8030 ± 999 ng/mL
CC(C)NC(=O)COc1cccc(-c2nc(Nc3ccc4[nH]ncc4c3)c3ccccc3n2)c1		human male, plasma	oral, 200 mg once daily, day 12, fed, geometric mean, with: dabigatran etexilate	2180 ng/mL
CC(C)(C(=O)N1CCOc2c(C#N)cncc2C1)C(F)F		humans, both sexes, plasma	oral, 15 mg twice daily, day 14, geometric mean	268 ng/mL
O=C(O)CCCCCCCCCCC(=O)O		human, plasma	concentration not given, endogenous baseline diurnal	79.7 ± 10.7 nM
Cc1c(OCC(F)(F)F)ccnc1C[S+]([O-])c1nc2ccccc2[nH]1 (stereo not drawn)		human, plasma	oral, dose not given, median	1600 ng/mL
CO[C@@H]1[C@H](OC(=O)N2CC(CCN3CCOCC3)C2)CC[C@]2(CO2)[C@H]1[C@@]1(C)O[C@@H]1CC=C(C)C		humans, plasma	subcutaneous, 0.2 mg twice weekly, first dose	0.18 ± 0.09 ng/mL
COC[C@@H](c1ccc(C(F)(F)F)cc1)N1CCN(C2(C)CCN(C(=O)c3c(C)ncnc3C)CC2)C[C@@H]1C		human	oral, 15 mg once daily, steady state, population PK, with: ritonavir	95 ng/mL
Cc1noc(C)c1-c1cc(C(O)(c2ccccn2)c2ccccn2)c2nc(C3CC3)[nH]c2c1		human patients, plasma	oral, 2 mg, cycle 1 day 8, monotherapy	174 ng/mL
NC1(C(=O)N[C@@H](CCO)c2ccc(Cl)cc2)CCN(c2ncnc3[nH]ccc23)CC1		human patients, plasma	oral, 320 mg twice daily, day 8	982 ng/mL
CO[C@H]1C[C@@H]2CC[C@@H](C)[C@@](O)(O2)C(=O)C(=O)N2CCCC[C@H]2C(=O)O[C@H]([C@H](C)C[C@@H]2CC[C@@H](OCCO)[C@H](OC)C2)CC(=O)[C@H](C)/C=C(\C)[C@@H](O)[C@@H](OC)C(=O)[C@H](C)C[C@H](C)/C=C/C=C/C=C/1C		human, plasma	oral, 5 mg, cycle 1 day 1, single dosing, with: vorolanib 100 mg	41.1 ± 24 ng/mL
C=CC(=O)N(C)CCOc1c(N)ncnc1-c1cc(F)cc(NC(=O)c2ccc(C3CC3)cc2F)c1C		human, whole blood	oral, 30 mg, single ascending dose, fasted	64.8 ng/mL
CCCS(=O)(=O)N[C@H]1C[C@@H](N(C)c2ncnc3[nH]ccc23)C1		human, plasma, total	oral, 200 mg once daily, 4 days, steady state	1180 ng/mL
CC(=O)N(C)[C@H]1CCN(C(=O)c2cnc3c(c2)C[C@](C)(c2ccc(F)cc2)N3)C1		human, male, plasma	oral, 60 mg once daily, geometric mean	1460 nM
CC(C)(Sc1ccncc1-c1ccc(C#N)c2ccccc12)C(=O)O		human, plasma	oral, 5 mg once daily, with: febuxostat 0 mg	17.2 ng/mL
C=CC(=O)N1CCC(Oc2cc3c(Nc4ccc(Cl)c(Cl)c4F)ncnc3cc2OC)CC1		human, fed, plasma	oral, 16 mg, geometric mean	59.9 ng/mL
COc1ccc2[nH]c([S@+]([O-])Cc3ncc(C)c(OC)c3C)nc2c1		human, dried blood spots	oral, 10 mg omeprazole, with: fluvoxamine	197 ng/mL
CN1CC[C@@H](c2c(O)cc(O)c3c(=O)cc(-c4ccc(C(F)(F)F)cc4Cl)oc23)[C@@H]1CO	noncompartmental	human patients, plasma	oral, 100 mg intermittent, cycle 1, after day 1	172 ng/mL
Cc1cn(C(=O)c2c(-c3c(Cl)cc(Cl)cc3Cl)noc2C(C)(C)F)c2cccc(/C=C/C(=O)O)c12		human patients	250 mg bid, cycle 8 day 1	24900 ng/mL

SMILES	assay	system	conditions	Cmax
CCN1CCN(Cc2ccc(Nc3ncc(F)c(-c4cc(F)c5nc(C)n(C(C)C)c5c4)n3)nc2)CC1		fasted healthy human subjects, plasma	oral, 200 mg, capsule	102 ng/mL
C[C@H](CCC(=O)O)[C@H]1CC[C@H]2[C@@H]3[C@H](O)C[C@@H]4C[C@H](O)CC[C@]4(C)[C@H]3C[C@H](O)[C@]12C		human, plasma	concentration not given, endogenous baseline diurnal	113 ± 41 nM
Cn1ncnc1[C@H]1c2n[nH]c(=O)c3cc(F)cc(c23)N[C@@H]1c1ccc(F)cc1		human patients, plasma	oral, 600 µg/m2 twice daily day 1, day 5, dose level DL3, median, with: temozolomide 20 mg/m2 daily days 2-6	16.4 ng/mL
Cn1cc(-c2ccc(S(=O)(=O)[C@@H]3C[C@@H](C(=O)NC4(C#N)CC4)N(C(=O)C4(C(F)(F)F)CC4)C3)c(C(F)(F)F)c2)cn1	noncompartmental analysis	human, plasma	oral, 50 mg, day 1, with food, geometric mean	453 ng/mL
O=C(c1cc(Cc2n[nH]c(=O)c3ccccc23)ccc1F)N1CCN(C(=O)C2CC2)CC1		human, plasma	oral, 25 mg, cycle 1 day 0, dose level -1	1350 ng/mL
C[C@H](Oc1ccc(Br)cc1-c1ccon1)C(=O)O		healthy male humans, plasma	oral, 400 mg twice daily, day 1	28500 ng/mL
CC1=C(c2cccc(O)c2)[C@H](c2ccc(OCCN3CC(CF)C3)cc2)Oc2ccc(O)cc21		human, plasma	oral, 1400 mg once daily, steady state geometric mean	166 ng/mL
Cl.[2H]C([2H])([2H])CC(=O)c1cnc(NC(=O)C2CC2)cc1Nc1cccc(-c2ncn(C([2H])([2H])[2H])n2)c1OC	geometric mean	human	oral, 100 mg single dose, fasted, liquid	949 ng/mL
CC(C)c1nc(N(C)S(C)(=O)=O)nc(-c2ccc(F)cc2)c1/C=C/[C@@H](O)C[C@@H](O)CC(=O)O		human, plasma	oral, 20 mg, day 2, geometric mean, alone	5.04 ng/mL
CO[C@@H]1[C@H](N(C)C(=O)c2ccccc2)C[C@H]2O[C@]1(C)n1c3ccccc3c3c4c(c5c6ccccc6n2c5c31)C(=O)NC4		human patients, induction therapy, plasma	oral, 50 mg twice daily, day 21, mean, with micafungin	1990 ng/mL
Cc1ccc(=O)n(-c2ccccc2)c1		healthy human	oral, 600 mg single, alone	12200 ng/mL
Cc1ccc(NC(=O)c2ccc(CN3CCN(C)CC3)cc2)cc1Nc1nccc(-c2cncc(-c3oncc3C)c2)n1		healthy human volunteers, plasma	oral, 200 mg/day, multiple ascending dose, steady state	5950 ± 1120 ng/mL
NC[C@@]1(CC(=O)O)[C@@H]2CC[C@H]3C[C@@H]2[C@@H]1C3		human, moderate renal impairment, plasma	oral, 20 mg single dose, geometric mean	410 ng/mL
N[C@@H]1c2cccnc2[C@H](OC(=O)N2CCC(n3c(=O)[nH]c4ncccc43)CC2)CC[C@H]1c1cccc(F)c1F		human, plasma	oral, 75 mg single dose, alone, geometric mean, rifampin DDI study	880 ng/mL
COc1nnc2ccc(N3CCC(c4ccc(OCCN5CCN(C)C(=O)[C@H]5C)cc4)CC3)nn12		human, plasma	oral, 30 mg once daily, single dose, monotherapy	245 nM
C[C@@H](c1ccc2nccn2c1)n1nnc2ncc(-c3cnn(C)c3)nc21		human, plasma	oral, 300 mg, cycle 1 day 1, single dose	1980 ng/mL
COc1cc([C@H]2Oc3ccc([C@H]4Oc5cc(O)cc(O)c5C(=O)[C@@H]4O)cc3O[C@@H]2CO)ccc1O		OATP1B1/1B3 humanized mice, plasma	oral gavage, 500 mg/kg silymarin	510 nM
CN(C)C(=O)c1cc2cnc(Nc3ccc(N4CCNCC4)cn3)nc2n1C1CCCC1		human, normal renal function, plasma	oral, 400 mg, single dose, geometric mean	234 ng/mL
Cc1nc(-c2ccc(OCC(C)C)c(C#N)c2)sc1C(=O)O		human	oral, 20 mg once daily, with: verinurad 0 mg	537 ng/mL
COc1cc2ncnc(Nc3ccc(F)c(Cl)c3)c2cc1NC(=O)/C=C/CN1CCCCC1		human, mild hepatic impairment (NCI), plasma	single dose, geometric mean, total drug	12 ng/mL

SMILES	assay	system	conditions	Cmax
CC(C)[C@@H]1CC[C@@H](C)C[C@H]1OC(=O)O[C@@H](C)OC(=O)[C@H]1[C@@H]2C[C@H](F)[C@@](N)(C(=O)O)[C@@H]21		human, plasma	oral, 20 mg, fed, single dose	30.7 ng/mL
Cc1cc(C)c(CNC(=O)c2cc(Cl)c3c(c2C)O[C@@](C)([C@H]2CC[C@H](N(C)C)CC2)O3)c(=O)[nH]1		human, NHL patients, plasma	oral, 200 mg/day, cycle 1 day 15, once daily	1710 ng/mL
C=CC(=O)N1CCC[C@@H](n2c(=O)n(-c3ccc(Oc4ccccc4)cc3)c3c(N)nccc32)C1		human, fasted, plasma	oral, 60 mg, geometric mean	9.31 ng/mL
Cc1ccc(C(=O)N(CCCN)C(c2nc3snc(C)c3c(=O)n2Cc2ccccc2)C(C)C)cc1 (stereo not drawn)		human patients, plasma	intravenous, 13 mg/day, day 3 of induction course, geometric mean	114 ng/mL
CN(C)N=Nc1[nH]cnc1C(N)=O		human patients, plasma	intravenous, 1000 mg/m^2 over 1 h, cycle 2 day 1, co-administered with another drug	44300 ng/mL
NC(=O)N1c2ccccc2C=Cc2ccccc21		healthy human subjects, plasma	oral, dose not given, day 21, twice daily, with glecaprevir and pibrentasvir	7620 ng/mL
CC(C)c1ncc(C(=O)N2CCOC3(CCN(Cc4ccc(F)c(CCNC[C@H](O)c5ccc(O)c6[nH]c(=O)sc56)c4)CC3)C2)s1		healthy human, plasma	inhaled or intranasal, dose not given	0.45 nM
CCN(CC)CCNC(=O)c1c(C)[nH]c(/C=C2\C(=O)Nc3ccc(F)cc32)c1C		human, normal hepatic function (NCI), plasma	single dose, geometric mean, total drug	21.8 ng/mL
C[C@H](CCC(=O)NCC(=O)O)[C@H]1CC[C@H]2[C@@H]3CC[C@@H]4C[C@H](OS(=O)(=O)O)CC[C@]4(C)[C@H]3C[C@H](O)[C@]12C		human, plasma	concentration not given, endogenous control diurnal	520 ± 180 nM
COc1ccc(F)cc1C(=O)NCc1ccc(-c2nn([C@@H](C)C(F)(F)F)c(N)c2C(N)=O)cc1		human, plasma	oral, 200 mg single dose, alone arm, itraconazole interaction study	4000 ng/mL
Cc1ncnc2c1ccn2[C@@H]1C[C@H](Oc2cc(C(F)F)c(F)c3c2CNCC3)[C@@H](O)[C@H]1O		human	4 mg twice daily, multiple dose, geometric mean	59.8 ng/mL
Cc1cc(OCCOCCC(F)(F)P(=O)(O)O)ccc1CCc1cnc2c(N)nc3cc(CCC(=O)O)ccc3c2c1		human, serum	intratumoral, 400 µg every 2 weeks, cycle 2 day 15	1.41 ng/mL
NC(CO)(CO)CCc1ccc(Sc2cccc(OCc3ccccc3)c2)cc1Cl		human, fed, whole blood	oral, 3 mg, geometric mean, alone	1.21 ng/mL
Cn1c(=O)oc2ccc(-c3ccc(C[C@@H](C#N)NC(=O)[C@@H]4CNCCCO4)cc3)cc21		human, mild renal impairment, plasma	oral, 25 mg single dose, mean	183 ng/mL
C[C@H]1CN(C2COC2)CCN1c1ccc(Nc2cc(-c3ccnc(N4CCn5c(cc6c5CC(C)(C)C6)C4=O)c3CO)cn(C)c2=O)nc1		human, plasma	oral, 200 mg twice daily	1200 nM
Cn1cncc1[C@@](N)(c1ccc(Cl)cc1)c1ccc2c(c1)c(-c1cccc(Cl)c1)cc(=O)n2C		healthy human subjects, plasma	oral, 100 mg, fed (high-fat meal)	251 ng/mL
Cc1cc(Nc2cc3ncccc3c(N[C@@H]3C[C@H]4CC[C@@H](C3)N4CCC#N)n2)n[nH]1		human, plasma	300 mg single dose, mean	7.24 ng/mL
COc1ccc([C@@H](O)c2cc(-c3ncnc4cc(N5CCOCC5)ccc34)c(F)cc2Cl)nn1	LC-MS	human	oral, 200 mg twice daily, single dose	1030 ng/mL
COc1ccc2nc([S@@+]([O-])Cc3ncc(CO)c(OC)c3C)[nH]c2c1		human, dried plasma spots	5 mg racemic omeprazole	8.3 nM
Cn1cncc1[C@@](N)(c1ccc(Cl)cc1)c1ccc2c(c1)c(-c1cccc(Cl)c1)cc(=O)n2C		human patients	oral, 300 mg/m2, first dose, cycle 1, expanded cohort, median	1470 ng/mL

A few entries again:
SMILES	assay	system	conditions	Cmax
COc1nnc2ccc(N3CCC(c4ccc(OCCN5CCN(C)C(=O)[C@H]5C)cc4)CC3)nn12		human, plasma	oral, 30 mg once daily, single dose, monotherapy	245 nM
C[C@@H](c1ccc2nccn2c1)n1nnc2ncc(-c3cnn(C)c3)nc21		human, plasma	oral, 300 mg, cycle 1 day 1, single dose	1980 ng/mL
COc1cc([C@H]2Oc3ccc([C@H]4Oc5cc(O)cc(O)c5C(=O)[C@@H]4O)cc3O[C@@H]2CO)ccc1O		OATP1B1/1B3 humanized mice, plasma	oral gavage, 500 mg/kg silymarin	510 nM
CN(C)C(=O)c1cc2cnc(Nc3ccc(N4CCNCC4)cn3)nc2n1C1CCCC1		human, normal renal function, plasma	oral, 400 mg, single dose, geometric mean	234 ng/mL
Cc1nc(-c2ccc(OCC(C)C)c(C#N)c2)sc1C(=O)O		human	oral, 20 mg once daily, with: verinurad 0 mg	537 ng/mL
COc1cc2ncnc(Nc3ccc(F)c(Cl)c3)c2cc1NC(=O)/C=C/CN1CCCCC1		human, mild hepatic impairment (NCI), plasma	single dose, geometric mean, total drug	12 ng/mL
CC(C)[C@@H]1CC[C@@H](C)C[C@H]1OC(=O)O[C@@H](C)OC(=O)[C@H]1[C@@H]2C[C@H](F)[C@@](N)(C(=O)O)[C@@H]21		human, plasma	oral, 20 mg, fed, single dose	30.7 ng/mL
Cc1cc(C)c(CNC(=O)c2cc(Cl)c3c(c2C)O[C@@](C)([C@H]2CC[C@H](N(C)C)CC2)O3)c(=O)[nH]1		human, NHL patients, plasma	oral, 200 mg/day, cycle 1 day 15, once daily	1710 ng/mL
C=CC(=O)N1CCC[C@@H](n2c(=O)n(-c3ccc(Oc4ccccc4)cc3)c3c(N)nccc32)C1		human, fasted, plasma	oral, 60 mg, geometric mean	9.31 ng/mL
Cc1ccc(C(=O)N(CCCN)C(c2nc3snc(C)c3c(=O)n2Cc2ccccc2)C(C)C)cc1 (stereo not drawn)		human patients, plasma	intravenous, 13 mg/day, day 3 of induction course, geometric mean	114 ng/mL
